Results pooled from the literature.
Numbered parts are unrelated; each lists some results of a single study. Changes are numbered by the printed parent chain.

Sample 1
Target: RNA binding protein fox-1 homolog 2, RRM domain, GST-SBP tag (RBFOX2, Homo sapiens, UniProt O43251-10, residues 100-194)
Technique: RNA Bind-n-Seq
Molecule type: RNA
Medium: in vitro
Tested at: 365 nM
Notes: natural RNA segment, single round, ends assumed
Relative to: no-protein control
Direction: higher = stronger binding
Quantity: RBNS enrichment (R)
Shared flanks, not repeated: GGGAGUUCUACAGUCCGACGAUC … UGGAAUUCUCGGGUGCCAA
Construct (chain): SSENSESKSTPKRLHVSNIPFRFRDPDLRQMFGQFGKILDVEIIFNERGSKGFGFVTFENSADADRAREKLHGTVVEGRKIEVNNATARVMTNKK
Oligonucleotide = CUGUCACAUCGCUACAGACAAGACCUCCCUGGAACCCUUCUGAUUGUCUUAGACACUGUGGUUGCAAAACCCACGGAAAGCCUCAUUUGUGUGGAAAGUCAGAGGAAAAA; result = 0.469
Oligonucleotide = GCCUUCGACAAAAGUGUGUAUUUGUCCCGGGGAGGGUAGCAGUGGGCCAUGGGGCUUCUUGUGCCCUAAAGGGGACUGGCUGCUGUGAUCUUCUAAGGGGCCCAGGGCCA; result = 0.443
Oligonucleotide = GAAUUGCAUUGCAUUGAGUUGUACCGGUAUUGCACAGCCCUGCGUGUGAGCCAGAUGUAACACUCCAAGCAGCUGUGAAAUGCAAUGUUCCUUUUGCAGGAGUGGCUGUA; result = 2.03
Oligonucleotide = AUUUUUCCAAGCUGAUUUAUUAGUUAUAACCAGUAAUACACACAUCAUCUAGCUUUUCAUUCUUUAAGUAAGGGGGAAAAAAUCACUAAACAAUAAAGUUGGCUAGACCU; result = 0.675
Oligonucleotide = CUUCGAAGGUACGGAUGAGGAGAAAUCUUCUAUGAGCAACUCCGUGCUGUCUGCCUAGGAAUCCUUCAGUGGUAUGGGACACUCCUCAAGUGAGCCAAAUGCCCGUUCUU; result = 0.248

Sample 2
Target: Phosphate system positive regulatory protein PHO4, full length, GST-tagged (PHO4, Saccharomyces cerevisiae, UniProt P07270, residues 1-312)
Technique: competition protein-binding microarray
Molecule type: double-stranded DNA, one strand shown
Medium: in vitro
Tested at: 2 µM
Notes: whole 60-bp probe, lowest competitor level
Together with: Cbf1 competitor, 0.05 µM
Direction: higher = stronger binding
Quantity: fluorescence intensity
Shared flanks, not repeated: … GTCTTGATTCGCTTGACGCTGCTG
Construct (chain): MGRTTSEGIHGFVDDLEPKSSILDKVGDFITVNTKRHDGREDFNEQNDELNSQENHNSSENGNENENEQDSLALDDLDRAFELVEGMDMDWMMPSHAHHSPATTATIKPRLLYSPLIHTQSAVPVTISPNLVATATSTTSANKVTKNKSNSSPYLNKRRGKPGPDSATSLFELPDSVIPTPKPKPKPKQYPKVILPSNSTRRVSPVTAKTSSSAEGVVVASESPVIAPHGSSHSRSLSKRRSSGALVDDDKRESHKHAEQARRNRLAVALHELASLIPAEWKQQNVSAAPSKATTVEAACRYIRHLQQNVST
Oligonucleotide = TGATCCGTTCGCAATCACGTTGTTACTATTCGAGGA; result = 12000 a.u.
Oligonucleotide = AGGCAAGAAAGAGGATGCGTGCCGAAGCTCGGTTAG; result = 8390 a.u.
Oligonucleotide = AAAGCGGTAATTTGAATGGTGGGTGCAGATATCTAT; result = 4330 a.u.
Oligonucleotide = AAGGGACGGATTCAAGCCGTGTCTGTGAGCATCCAT; result = 4210 a.u.
Oligonucleotide = CTTCTGTAAATTTTTCACGTGACTTGACGCGCCCCG; result = 10000 a.u.
Oligonucleotide = CGAGAAGCTTTCGGCCACGTGGGTATCTGGATTCAA; result = 17200 a.u.
Oligonucleotide = GTCTTGTCTCATTTTCACGTGTTTTTCCCCACTTCA; result = 12800 a.u.
Oligonucleotide = GGGCTTACTTTATCGCACGTGATGGTTCCCACAGTA; result = 15900 a.u.

Sample 3
Target: CCNE1, cyclin fold, Cln2 fusion (human)
Technique: yeast growth competition, sequencing
Medium: yeast
Notes: weak parent motif
Relative to: not given
Direction: higher = stronger binding
Quantity: normalised enrichment score
Starting sequence: CDC42EP1 docking peptide (human); SLVVGKLSFDSSP
Substitution = L7A; result = -0.11
Substitution = V4A; result = 0.177
Substitution = K6A; result = 0.323
Substitution = F9A; result = -0.197
Substitution = S11A; result = 0.299
Substitution = S1A; result = 0.453

Single results of other studies
Substance = PhoQ, residues 284 288 289 292 302 303 NLGVHL; target = PhoP, residues 12 14 15 18 19 AGCRL (Escherichia coli, UniProt P23836); test = Sort-seq, measured: YFP reporter; test system = E. coli; setting = PhoQ-PhoP variant library, together with: 10 µM Mg2+; how to read = relative to: high Mg2+ state, higher = stronger signaling; quantity = fold induction; result = 0.937

For quick reference, copied from above (single results of other studies):
Substance = PhoQ, residues 284 288 289 292 302 303 NLGVHL; target = PhoP, residues 12 14 15 18 19 AGCRL (Escherichia coli, UniProt P23836); test = Sort-seq, measured: YFP reporter; test system = E. coli; setting = PhoQ-PhoP variant library, together with: 10 µM Mg2+; how to read = relative to: high Mg2+ state, higher = stronger signaling; quantity = fold induction; result = 0.937
